{"data": "Measurements from different studies", "note": "Numbered parts are unrelated; each lists some results of a single study. Substitutions count along the parent as printed."}
{"data": "Set 1", "target": "Histone acetyltransferase KAT6A, winged helix 1, GST fusion (KAT6A, Homo sapiens, UniProt Q92794, residues 1-85)", "method": "protein binding microarray", "molecule type": "double-stranded DNA, one strand shown", "matrix": "in vitro", "tested at": "not given", "setting": "8-mer, flanks averaged, mean of 2 arrays, mostly near background", "baseline": "not given", "direction": "higher = stronger binding", "Construct (chain)": "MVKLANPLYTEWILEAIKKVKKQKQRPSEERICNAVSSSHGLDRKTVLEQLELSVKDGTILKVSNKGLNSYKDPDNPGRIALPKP"}
{"Oligonucleotide": "CGTCCTTA", "E-score": 0.107}
{"Oligonucleotide": "CTTCCTTA", "E-score": -0.215}
{"Oligonucleotide": "ACAACAAA", "E-score": -0.047}
{"Oligonucleotide": "GCCGTCGA", "E-score": 0.312}
{"Oligonucleotide": "CACGTATC", "E-score": -0.132}
{"Oligonucleotide": "GAATGCGA", "E-score": 0.106}
{"Oligonucleotide": "AATGCCTC", "E-score": -0.146}
{"Oligonucleotide": "CTTTCAGA", "E-score": -0.112}
{"Oligonucleotide": "AGATGCAA", "E-score": -0.175}
{"Oligonucleotide": "GATACTCC", "E-score": -0.08}
{"Oligonucleotide": "CTCCTATC", "E-score": -0.0926}
{"Oligonucleotide": "CACTACAA", "E-score": -0.164}
{"Oligonucleotide": "AACGGTAT", "E-score": 0.0219}
{"Oligonucleotide": "CGGCCAGA", "E-score": 0.0816}
{"Oligonucleotide": "ACCACCCA", "E-score": -0.159}
{"Oligonucleotide": "AGCTAGCT", "E-score": -0.448}
{"Oligonucleotide": "CGCCCCCA", "E-score": 0.117}
{"Oligonucleotide": "GCGACGAA", "E-score": -0.106}
{"Oligonucleotide": "AGCAGCGA", "E-score": -0.048}
{"data": "Set 2", "target": "ABI1, truncated, D143A, DHFR fusion (Arabidopsis thaliana)", "method": "DHFR PCA, deep sequencing", "matrix": "yeast", "setting": "methotrexate growth selection, single substitutions", "together with": "(+)-ABA 2500 µM", "baseline": "wild-type fitted maximum", "direction": "higher = stronger binding", "starting sequence": "PYL1, truncated, DHFR fusion (Arabidopsis thaliana); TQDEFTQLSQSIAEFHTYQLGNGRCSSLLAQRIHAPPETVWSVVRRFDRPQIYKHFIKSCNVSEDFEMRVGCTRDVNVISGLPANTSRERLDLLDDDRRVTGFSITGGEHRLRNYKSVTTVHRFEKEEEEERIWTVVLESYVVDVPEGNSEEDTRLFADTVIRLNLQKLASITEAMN; partner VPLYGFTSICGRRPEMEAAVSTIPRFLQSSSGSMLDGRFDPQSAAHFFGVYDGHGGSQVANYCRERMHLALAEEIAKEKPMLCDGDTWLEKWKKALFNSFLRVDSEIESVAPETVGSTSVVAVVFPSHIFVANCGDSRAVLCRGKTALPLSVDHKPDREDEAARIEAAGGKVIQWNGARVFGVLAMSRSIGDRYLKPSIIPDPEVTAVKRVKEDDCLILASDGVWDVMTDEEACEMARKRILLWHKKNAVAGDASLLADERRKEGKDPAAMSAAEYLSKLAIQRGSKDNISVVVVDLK"}
{"Substitution": "L91N", "relative binding score [%]": 57.8}
{"Substitution": "T86R", "relative binding score [%]": 96}
{"Substitution": "Y53R", "relative binding score [%]": 85.3}
{"Substitution": "S171M", "relative binding score [%]": 89.7}
{"Substitution": "G107C", "relative binding score [%]": 92.6}
{"Substitution": "Q19N", "relative binding score [%]": 100}
{"Substitution": "K58E", "relative binding score [%]": 93.7}
{"Substitution": "L166V", "relative binding score [%]": 54.2}
{"Substitution": "R24I", "relative binding score [%]": 95.6}
{"Substitution": "R90C", "relative binding score [%]": 88.7}
{"Substitution": "E129W", "relative binding score [%]": 93.4}
{"Substitution": "G71M", "relative binding score [%]": 74.8}
{"Substitution": "S26I", "relative binding score [%]": 87.6}
{"Substitution": "R155V", "relative binding score [%]": 95}
{"Substitution": "G108E", "relative binding score [%]": 74.3}
{"Substitution": "T39D", "relative binding score [%]": 89.3}
{"Substitution": "A170E", "relative binding score [%]": 86.3}
{"Substitution": "V145N", "relative binding score [%]": 83}
{"Substitution": "N61P", "relative binding score [%]": 83.5}
{"Substitution": "R99M", "relative binding score [%]": 106}
{"data": "Set 3", "target": "Interferon regulatory factor 7, full length, phosphomimetic (IRF7, Homo sapiens, UniProt Q92985, residues 1-503, S471D/S472D/S475D/S476D/S477D/S483D/S484D/S487D)", "method": "protein-binding microarray", "molecule type": "double-stranded DNA, one strand shown", "matrix": "in vitro", "tested at": "2200 nM top", "setting": "60-bp whole probe", "together with": "salmon DNA 0.4 mg/ml", "baseline": "random background probes", "direction": "higher = stronger binding", "shared flanks, not repeated": "GCCTAGCAC … GTCTTGATTCGCTTGACGCTGCTG", "UniProt Q92985, sequence (whole entry, unmodified, looked up)": "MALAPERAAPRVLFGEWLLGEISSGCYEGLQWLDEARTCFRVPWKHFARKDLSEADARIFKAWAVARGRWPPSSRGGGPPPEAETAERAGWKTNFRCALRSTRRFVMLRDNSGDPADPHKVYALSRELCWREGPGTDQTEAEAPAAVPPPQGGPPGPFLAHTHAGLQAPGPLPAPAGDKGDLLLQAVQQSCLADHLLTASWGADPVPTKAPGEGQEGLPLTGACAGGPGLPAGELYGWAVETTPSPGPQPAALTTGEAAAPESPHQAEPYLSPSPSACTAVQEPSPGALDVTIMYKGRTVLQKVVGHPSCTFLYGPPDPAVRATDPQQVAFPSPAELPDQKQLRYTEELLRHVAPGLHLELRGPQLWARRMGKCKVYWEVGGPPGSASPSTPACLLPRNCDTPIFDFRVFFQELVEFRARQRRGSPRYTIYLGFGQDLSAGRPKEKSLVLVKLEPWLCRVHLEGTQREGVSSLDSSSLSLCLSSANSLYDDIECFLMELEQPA"}
{"Oligonucleotide": "GACGATCTCAGACTAGAGACGTGCTAG", "fitted relative affinity [z-score]": -0.256}
{"Oligonucleotide": "GACGGACTGAGGTATCGGGACGTGCTA", "fitted relative affinity [z-score]": -0.846}
{"Oligonucleotide": "GAAGATTTCAATTAAAAAAAGTGCTAG", "fitted relative affinity [z-score]": -1.42}
{"Oligonucleotide": "GACTATTTCAGTATCGAGACGTGCTAG", "fitted relative affinity [z-score]": 1.05}
{"Oligonucleotide": "GACGGGTTCGGTATCGGGACGTGCTAG", "fitted relative affinity [z-score]": 0.58}
{"Oligonucleotide": "GACGGTTTCGCACTGGGGACGTGCTAG", "fitted relative affinity [z-score]": 3.43}
{"Oligonucleotide": "TTAGGTCACGGTATCGGTTAGTGCTAG", "fitted relative affinity [z-score]": 0.487}
{"Oligonucleotide": "TTAGATTTCAGTATCGCTTAGTGCTAG", "fitted relative affinity [z-score]": 1.14}
{"Oligonucleotide": "GACGGACTGGGTTTCGGGTCGTGCTAG", "fitted relative affinity [z-score]": 3.63}
{"Oligonucleotide": "GACGGTATCGGATTTCGGGACGTGCTA", "fitted relative affinity [z-score]": 0.714}
{"Oligonucleotide": "TTGGATATCGGGTTTCGATTAGTGCTA", "fitted relative affinity [z-score]": 2.77}
{"Oligonucleotide": "GACGGACTGGACTATCGGGTCGTGCTA", "fitted relative affinity [z-score]": -0.137}
{"Oligonucleotide": "TTAGATCTCAGAATGGATTAGTGCTAG", "fitted relative affinity [z-score]": -0.42}
{"Oligonucleotide": "GACGATATCGGGTTTCAAGACGTGCTA", "fitted relative affinity [z-score]": 0.363}
{"Oligonucleotide": "GACGATTTCTGTCTCGAGACGTGCTAG", "fitted relative affinity [z-score]": 1.56}
{"Oligonucleotide": "GACGGTTGCGGTTCCGGGACGTGCTAG", "fitted relative affinity [z-score]": 1.22}
{"Oligonucleotide": "GACGGTATCGGTTTCGGGATGTGCTAG", "fitted relative affinity [z-score]": 4.65}
{"Oligonucleotide": "TCAAGTTTACCCATCTCACTGTGCTAG", "fitted relative affinity [z-score]": 1.04}
{"Oligonucleotide": "TTAGATTTCAGTGTCGATTAGTGCTAG", "fitted relative affinity [z-score]": 0.365}
{"data": "Further values, each from its own experiment"}
{"Molecule": "PPVKRRLDLETDH", "target": "human cyclin B2", "assay": "cyclin docking binding, deep mutational scanning", "test system": "peptide, yeast cyclin B2-Cln2 system", "how to read": "direction not given", "quantity": "score minus score, wild type", "value": 0}
{"note": "A few entries again (set 3):"}
{"Oligonucleotide": "TTAGATTTCAGTATCGCTTAGTGCTAG", "fitted relative affinity [z-score]": 1.14}
{"Oligonucleotide": "GACGGACTGGACTATCGGGTCGTGCTA", "fitted relative affinity [z-score]": -0.137}
{"Oligonucleotide": "TTGGATATCGGGTTTCGATTAGTGCTA", "fitted relative affinity [z-score]": 2.77}
{"Oligonucleotide": "TTAGGTCACGGTATCGGTTAGTGCTAG", "fitted relative affinity [z-score]": 0.487}
{"Oligonucleotide": "TTAGATCTCAGAATGGATTAGTGCTAG", "fitted relative affinity [z-score]": -0.42}
{"Oligonucleotide": "GACTATTTCAGTATCGAGACGTGCTAG", "fitted relative affinity [z-score]": 1.05}
{"Oligonucleotide": "GACGGTATCGGTTTCGGGATGTGCTAG", "fitted relative affinity [z-score]": 4.65}
{"Oligonucleotide": "GACGATATCGGGTTTCAAGACGTGCTA", "fitted relative affinity [z-score]": 0.363}
{"Oligonucleotide": "GACGGGTTCGGTATCGGGACGTGCTAG", "fitted relative affinity [z-score]": 0.58}
